# Earlier results as cited in several papers.
# ± gives the spread as reported.
# Metallo-beta-lactamase type 2: Metallo-beta-lactamase type 2 (Serratia marcescens, UniProt P52699)
# Sequence of UniProt P52699 (whole entry, looked up): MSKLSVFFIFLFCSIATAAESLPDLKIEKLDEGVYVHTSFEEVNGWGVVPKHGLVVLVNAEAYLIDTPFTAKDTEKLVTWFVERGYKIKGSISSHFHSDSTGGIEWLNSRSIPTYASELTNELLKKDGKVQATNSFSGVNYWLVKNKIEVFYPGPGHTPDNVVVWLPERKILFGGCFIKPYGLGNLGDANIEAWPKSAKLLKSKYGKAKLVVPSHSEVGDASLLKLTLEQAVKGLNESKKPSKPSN
# Sequence of UniProt P33533 (whole entry, looked up): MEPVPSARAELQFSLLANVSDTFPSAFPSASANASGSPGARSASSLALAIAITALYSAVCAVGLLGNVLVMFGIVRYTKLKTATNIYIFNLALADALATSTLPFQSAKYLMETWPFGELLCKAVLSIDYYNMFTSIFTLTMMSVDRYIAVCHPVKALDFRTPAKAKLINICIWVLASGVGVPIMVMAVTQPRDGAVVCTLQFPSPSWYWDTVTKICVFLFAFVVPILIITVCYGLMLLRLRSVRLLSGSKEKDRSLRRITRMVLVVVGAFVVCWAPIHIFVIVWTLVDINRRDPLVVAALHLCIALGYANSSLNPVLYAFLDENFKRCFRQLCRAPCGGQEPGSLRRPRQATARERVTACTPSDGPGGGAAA
# Sequence of UniProt Q8IM16 (whole entry, looked up): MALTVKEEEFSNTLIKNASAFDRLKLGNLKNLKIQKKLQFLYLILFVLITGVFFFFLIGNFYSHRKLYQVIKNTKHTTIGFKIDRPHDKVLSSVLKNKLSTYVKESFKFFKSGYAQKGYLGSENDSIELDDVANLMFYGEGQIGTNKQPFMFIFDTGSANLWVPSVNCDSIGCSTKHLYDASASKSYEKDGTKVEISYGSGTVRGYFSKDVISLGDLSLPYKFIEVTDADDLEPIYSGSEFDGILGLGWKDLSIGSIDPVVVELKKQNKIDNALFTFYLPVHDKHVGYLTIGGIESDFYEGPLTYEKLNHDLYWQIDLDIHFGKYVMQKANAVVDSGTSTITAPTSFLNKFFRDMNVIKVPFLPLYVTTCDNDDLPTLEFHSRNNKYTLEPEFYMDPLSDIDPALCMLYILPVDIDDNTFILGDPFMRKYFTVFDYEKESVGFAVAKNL
# Sequence of UniProt P41020 (whole entry, looked up): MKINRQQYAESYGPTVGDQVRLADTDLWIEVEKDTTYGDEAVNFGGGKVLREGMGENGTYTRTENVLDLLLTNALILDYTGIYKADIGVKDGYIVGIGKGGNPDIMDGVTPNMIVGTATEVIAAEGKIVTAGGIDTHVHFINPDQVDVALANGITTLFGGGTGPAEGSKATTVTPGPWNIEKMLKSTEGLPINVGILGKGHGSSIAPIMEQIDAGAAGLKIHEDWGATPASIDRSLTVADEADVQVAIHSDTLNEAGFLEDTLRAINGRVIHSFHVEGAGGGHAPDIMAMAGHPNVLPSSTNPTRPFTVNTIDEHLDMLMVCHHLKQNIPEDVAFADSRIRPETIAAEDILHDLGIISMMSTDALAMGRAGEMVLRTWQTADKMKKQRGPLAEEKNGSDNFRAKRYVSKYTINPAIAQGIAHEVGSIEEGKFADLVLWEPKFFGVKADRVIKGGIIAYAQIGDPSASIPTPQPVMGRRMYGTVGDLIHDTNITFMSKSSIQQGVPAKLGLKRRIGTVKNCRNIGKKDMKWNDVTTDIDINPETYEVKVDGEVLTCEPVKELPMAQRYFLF
# Sequence of UniProt P31652 (whole entry, looked up): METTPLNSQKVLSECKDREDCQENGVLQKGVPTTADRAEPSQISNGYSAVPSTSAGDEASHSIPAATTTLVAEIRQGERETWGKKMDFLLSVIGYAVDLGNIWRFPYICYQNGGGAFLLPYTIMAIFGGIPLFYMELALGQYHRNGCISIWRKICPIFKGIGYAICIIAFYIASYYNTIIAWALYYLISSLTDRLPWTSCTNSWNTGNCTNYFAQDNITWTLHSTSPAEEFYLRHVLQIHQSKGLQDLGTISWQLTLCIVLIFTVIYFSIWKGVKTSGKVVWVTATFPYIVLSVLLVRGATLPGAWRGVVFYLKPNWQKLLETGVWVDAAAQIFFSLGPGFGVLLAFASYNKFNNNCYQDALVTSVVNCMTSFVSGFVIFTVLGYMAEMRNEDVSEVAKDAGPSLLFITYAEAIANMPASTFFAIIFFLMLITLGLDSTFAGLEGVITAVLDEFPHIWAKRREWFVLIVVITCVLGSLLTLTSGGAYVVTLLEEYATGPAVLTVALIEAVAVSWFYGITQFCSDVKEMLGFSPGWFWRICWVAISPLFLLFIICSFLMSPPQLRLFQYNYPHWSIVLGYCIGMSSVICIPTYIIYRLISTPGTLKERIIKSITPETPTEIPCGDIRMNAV
# Sequence of UniProt Q04609 (whole entry, looked up): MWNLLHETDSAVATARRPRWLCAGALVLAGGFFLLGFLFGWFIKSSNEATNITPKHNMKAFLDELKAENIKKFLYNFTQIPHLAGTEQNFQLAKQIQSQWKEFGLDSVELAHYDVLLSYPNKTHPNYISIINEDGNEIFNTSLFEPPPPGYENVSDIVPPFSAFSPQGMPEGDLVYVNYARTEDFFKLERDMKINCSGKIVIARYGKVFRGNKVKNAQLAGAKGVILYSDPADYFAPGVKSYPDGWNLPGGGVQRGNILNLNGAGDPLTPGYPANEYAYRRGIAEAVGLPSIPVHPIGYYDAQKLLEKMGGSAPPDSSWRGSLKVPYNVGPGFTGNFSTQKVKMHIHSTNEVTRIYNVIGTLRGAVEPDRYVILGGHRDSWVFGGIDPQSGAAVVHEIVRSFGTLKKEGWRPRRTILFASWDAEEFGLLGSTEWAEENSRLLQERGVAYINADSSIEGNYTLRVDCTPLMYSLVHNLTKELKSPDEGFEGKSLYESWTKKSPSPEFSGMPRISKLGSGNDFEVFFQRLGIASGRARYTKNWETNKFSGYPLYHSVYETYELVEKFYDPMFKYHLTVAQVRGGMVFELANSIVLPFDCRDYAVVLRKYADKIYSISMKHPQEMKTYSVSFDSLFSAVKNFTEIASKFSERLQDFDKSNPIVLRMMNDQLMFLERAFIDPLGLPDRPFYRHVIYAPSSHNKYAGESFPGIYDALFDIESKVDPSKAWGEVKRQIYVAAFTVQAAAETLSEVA
SMILES,target,test,test system,conditions,Ki
CCCC[C@@H](C(=O)N[C@@H](CC(=O)O)C(=O)N[C@@H](Cc1ccccc1)C(N)=O)N(C)C(=O)[C@@H](Cc1c[nH]c2ccccc12)NC(=O)CNC(=O)[C@@H](Cc1ccccc1)NC(=O)[C@@H](N)Cc1ccc(O)cc1,CCK2 receptor,binding,,,1.6 nM
"COC(=O)C1C(OC(c2ccc(Cl)cc2)c2ccc(Cl)cc2)CC2CCC1N2C (single isomer, unassigned)",serotonin transporter,,,,528 ± 39 nM
CCCC[C@@H](CN[C@@H](CC(C)C)C(=O)N[C@@H](CCC(N)=O)C(=O)N[C@H](C(=O)O)[C@@H](C)CC)NC(=O)[C@H](CO)NC(=O)[C@H](CCCC)NC(=O)[C@@H]1CCCN1C(=O)[C@@H](N)CCCCN,"Plasmepsin IV (PMIV, Plasmodium falciparum 3D7, UniProt Q8IM16)",,,,22 ± 3 nM
C=CC(=O)N1CCC[C@@H](n2nc(-c3cn(C)c4ccccc34)c3c(N)ncnc32)C1,"EGFR (Homo sapiens, UniProt P00533)",,,,25 ± 7.2 nM
CCN1CCCC1CNC(=O)c1cc(Br)cc(OC)c1OC (stereo not drawn) [carbon-11 labelled],dopamine D2long receptor,,,with: [3H]spiperone,0.65 nM
CC(C)(C)c1ccc(C(=O)Nc2cc(Cl)c(Br)cc2C(=O)O)cc1,"Phosphotransferase (Trypanosoma brucei, UniProt Q38C42)","enzyme activity, mixed inhibitor",,with: ATP,700 nM
CC(C)C[C@H](NC(=O)[C@@H]1CCCN1C(=O)[C@@H](N)CCCCN)C(=O)N[C@@H](CCC(=O)O)C(=O)N[C@H](CN[C@@H](Cc1ccc(O)cc1)C(=O)N[C@@H](CCCNC(=N)N)C(=O)N[C@H](C(=O)O)C(C)C)Cc1ccccc1,"Aspartic protease PM4 (Plasmodium vivax, UniProt O60989)",,,,0.7 ± 0.09 nM
CC1(C)S[C@@H]2CS[C@@H](CS)N2[C@H]1C(=O)O,Metallo-beta-lactamase type 2,inhibitor,,,14000 ± 3000 nM
CSC[C@H]1CN(Cc2c[nH]c3c(N)ncnc23)C[C@@H]1O,MTA/SAH nucleosidase Klebsiella pneumoniae,inhibitor,,,0.784 nM
O=C1N[C@@H](Cc2ccccc2)C(=O)N2CCC[C@@H]2C(=O)N[C@@H](Cc2ccccc2)C(=O)N[C@H]1Cc1c[nH]c2ccccc12,KOR opioid receptor,binding,,,35.4 ± 3.6 nM
OC(Cc1ccccc1)CN1CCN(CCSC(c2ccc(F)cc2)c2ccc(F)cc2)CC1 (stereo not drawn),"Slc6a4 (Rattus norvegicus, UniProt P31652)",binding,rat brain membranes,,1770 ± 234 nM
O=C(O)[C@@H]1CS[C@H]2CS[C@H](CS)N21,Metallo-beta-lactamase type 2,inhibitor,,,8000 ± 2000 nM
CC1(C)SCCSC[C@@H](NC(=O)[C@@H](N)Cc2ccc(O)cc2)C(=O)N[C@@H](Cc2ccccc2)C(=O)N[C@H]1C(N)=O,"Oprd1 (Rattus norvegicus, UniProt P33533)",binding,,,25 ± 1.5 nM
CNCP(C)(=O)O,"Urease subunit alpha (Sporosarcina pasteurii, UniProt P41020)","enzyme activity, inhibitor",,,18000 ± 700 nM
O=C([O-])CN1CCN(CC(=O)[O-])CCN(CC(=O)NCC2CCC(C(=O)NC(Cc3ccc4ccccc4c3)C(=O)NCCCCC(NC(=O)NC(CCC(=O)O)C(=O)O)C(=O)O)CC2)CCN(CC(=O)[O-])CC1.[Lu+3] (stereo not drawn),"FOLH1 (Homo sapiens, UniProt Q04609)",,LNCaP,,6.91 ± 1.32 nM

# Repeated from above:
SMILES,target,test,test system,conditions,Ki
OC(Cc1ccccc1)CN1CCN(CCSC(c2ccc(F)cc2)c2ccc(F)cc2)CC1 (stereo not drawn),"Slc6a4 (Rattus norvegicus, UniProt P31652)",binding,rat brain membranes,,1770 ± 234 nM
O=C(O)[C@@H]1CS[C@H]2CS[C@H](CS)N21,Metallo-beta-lactamase type 2,inhibitor,,,8000 ± 2000 nM
